Experimental data from different studies.
Parts stem from different laboratories: compare values within a part only. Substitutions count along the parent as printed.

Block 1 — technique: RNA Bind-n-Seq; form: RNA; matrix: in vitro; concentration: 100 nM; relative to: input RNA pool; reading: higher = stronger binding
Target: RING finger protein unkempt homolog, zinc fingers 1-6, SBP tag (UNK, Homo sapiens, UniProt Q9C0B0, residues 30-357)
UniProt Q9C0B0, sequence (30-357, looked up): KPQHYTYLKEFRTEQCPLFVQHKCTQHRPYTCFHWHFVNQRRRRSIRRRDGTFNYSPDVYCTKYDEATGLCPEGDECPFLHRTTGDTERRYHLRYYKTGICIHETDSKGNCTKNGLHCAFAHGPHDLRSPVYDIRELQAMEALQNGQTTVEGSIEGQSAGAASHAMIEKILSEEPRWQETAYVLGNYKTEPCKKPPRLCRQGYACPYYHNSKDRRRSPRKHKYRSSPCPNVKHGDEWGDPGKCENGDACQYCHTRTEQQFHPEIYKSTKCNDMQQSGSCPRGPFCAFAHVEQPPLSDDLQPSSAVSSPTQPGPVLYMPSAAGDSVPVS
Notes: RNA with constant flanks, vertebrate orthologous sites, ends assumed
Constant ends, left off below: GGGAGUUCUACAGUCCGACGAUC … CAACAGAGGAUUGAGCAUCA
| Sequence | bound/input enrichment [ratio] |
| --- | --- |
| CUGUUGUUAAGCACUGUGUUCCAGACCGUGUCUGACUUUAGUGUAACCUAGGAGAUUUUAUAGUUUUAUUUUAAUGAAACCUGCUUGACGCAGAGCAGUGAGGAGAGCAGUGUCCUCUAC | 1.61 |
| GACCUUGGAGCUAAAACCUGGGCCGGGGGACUAGAAAAGUAAAACAAGCUUGUAAAAUGAUAGCCAUAUGCAGCUGCACAGCAGUACUAUCACUAGCACCUGUGUUAAUGUACUUACAGA | 0.382 |
| AUUAAAUGUGUAUCAAAUGCUGGAUAUCCCAUUAAACCAUCAUUUAGGAUAGAUGUUUAUUUGUUACAAUUAAGCUACAAAUAGGUUUCCUUAAACCAGAAAUGCACUGCCCUUGUCUUA | 0.345 |
| UCUUUUUCCAGGUUGGAUGUAGUGGCAAAGUCAUAGGAAUUGAUCACAUUAAAGAGCUAGUAGAUGACUCGAUAAAUAAUGUCAGAAAGGAUGAUCCAGCACUUCUGUCUUCUGGGAGAG | 0.754 |
| UUCUGUACGGUGCAGAGUCUUCUGUACCAGUGUUCAUCCCUUCUUCAUACCAACUGUCCUUAGUAAUAGGAAUUUAAUAUUUUUAAAAGUUUCACAUUGCUGUAUAUUCAAAGAUUUGUU | 0.799 |
| AAAUGCAAUGGUUGAAGGCUCUGAGCUCAAAAAGAUUCGAUCCAACUCUAGGGUGUAUCACCGAUACUUUCUUUUAGAUGCAGAUAUGCAGUCUCUACGCUGGGAACCUUCAAAAAAGGA | 0.3 |
| UUGGGAUCAGCUCCCCAAAUAGGAAUAGUAGUAAAAAAAAUAAGCAAAAUGAUAUUUGUAUAGAAAAAACAGAAGUUAAAUCAUGUAAAGUAAAUGUUGCCAAUAUUGCAGGCUCCAAAG | 2.33 |
| UUUGAGGGAGAGAUUUCUGUGCUUUCUCAUUUAAUUUACUCUUUUUAAGAUAUUCCAACCUAGAGUUUUUGAUGGAACUGAUAUAUUGACAGUUCUCACCUAAGUCCUUUUAUAAAGAAU | 0.835 |
| CCUACAAUAAUGAAAACCUAUAGAAAUUUUUUAAUUUUUCAUUUUCCCCUUAGGCAUACAUAGUCUUUUUUUCCCCCAGGCAGAUCAUUCUGAGUGUGCGAGUGUGUGUGCACAUGUUAC | 3.15 |
| CAUCUCUCGUUUUAUAUGUCAAAAAAGGCUUUGAAUUUUUAAAAAAUUGCUAGUUUUGAUUAGCUCUACCUUCAUGAAGUGUUAUAAUUCACCACAAACAGAUAUCUGUCUGAAUUACUU | 0.369 |
| GUCCCUCAGUGACAGUAUGCCGUCUGUAGCAGACUCCCACUCGAGUCAUUUUUCUGAAUUUAGCUGCUCAGACUUAGAGAGCAUGAGAACGUCCUGUAGUCACGGUUCCAGCGAUUGCCA | 0.675 |

Block 2 — target: MAFG, bZIP domain (human); technique: DHFR protein complementation; matrix: yeast; relative to: wild-type JUN-FOS pair; reading: higher = stronger binding
Notes: single substitutions, most at no-binding floor
Starting sequence: JUN, bZIP domain (human); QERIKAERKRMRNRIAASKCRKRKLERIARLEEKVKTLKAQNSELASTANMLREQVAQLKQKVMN; partner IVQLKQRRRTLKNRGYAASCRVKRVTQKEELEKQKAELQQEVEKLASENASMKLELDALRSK
| Substitution | binding fitness [natural log] |
| --- | --- |
| E33W | -1.49 |
| L38I | -1.51 |
| K34E | -1.19 |
| A29I | -1.17 |
| T48H | -1.39 |
| K34A | -1.49 |
| S43I | -1.2 |
| K34W | -1.55 |
| S47N | -1.44 |
| A49S | -1.28 |
| L38W | -1.53 |

Block 3 — technique: protein-binding microarray; form: double-stranded DNA, one strand shown; matrix: in vitro; concentration: 2540 nM top; notes: 60-bp whole probe; together with: salmon DNA 0.4 mg/ml; relative to: random background probes; reading: higher = stronger binding; constant ends, left off below: GCCTAGCAC … GTCTTGATTCGCTTGACGCTGCTG
Target: Interferon regulatory factor 3, full length, phosphomimetic (IRF3, Homo sapiens, UniProt Q14653, residues 1-427, S386D/S396D/S398D/S402D/T404D/S405D)
UniProt Q14653, sequence (whole entry, unmodified, looked up): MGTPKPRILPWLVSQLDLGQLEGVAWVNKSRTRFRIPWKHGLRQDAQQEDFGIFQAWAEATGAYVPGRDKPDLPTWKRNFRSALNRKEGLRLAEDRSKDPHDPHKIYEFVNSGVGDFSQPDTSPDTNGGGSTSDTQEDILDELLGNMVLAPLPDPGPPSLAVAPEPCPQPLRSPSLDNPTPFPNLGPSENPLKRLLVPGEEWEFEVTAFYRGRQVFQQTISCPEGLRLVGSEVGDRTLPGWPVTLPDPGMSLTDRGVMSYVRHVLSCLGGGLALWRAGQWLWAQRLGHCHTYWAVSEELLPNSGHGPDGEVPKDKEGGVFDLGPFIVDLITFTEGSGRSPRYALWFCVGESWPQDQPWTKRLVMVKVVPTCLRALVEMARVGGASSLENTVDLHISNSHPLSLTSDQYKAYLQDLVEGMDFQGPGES
| Sequence | fitted relative affinity |
| --- | --- |
| TTAGATCTCAGTCTCGGTTAGTGCTAG | 0.773 z-score |
| CTCCTTCAGTATCCTTAGATGTGCTAG | 1.98 z-score |
| GAAGATATCAGTCTCGAGACGTGCTAG | 0.887 z-score |
| TTAGAACTGAGTCTCGACTAGTGCTAG | -0.619 z-score |
| TTAGGACTGGGTATCGGGTAGTGCTAG | -0.39 z-score |
| GACGAACTGAGTTTCTAGACGTGCTAG | 0.348 z-score |
| TTAGGTATCCGTTTCGGTTAGTGCTAG | 7.69 z-score |
| TTAGGACTGGACACTGGGCTAGTGCTA | -0.664 z-score |
| ATGTGTTTACATATGTTTTTGTGCTAG | 0.494 z-score |
| TCATTTTTATTTATAAAACTGTGCTAG | 1.98 z-score |
| TTAGGTATCCTACTGCTGTAGTGCTAG | 2.58 z-score |
| TCAAAATTGTCTCTGTCACTGTGCTAG | -0.124 z-score |
| GACGGTATAGACACTGGGGACGTGCTA | -0.52 z-score |
| TTAGGTATGCTTATCCTTTAGTGCTAG | 0.164 z-score |
| GATGATTTCAGTTTCGAGACGTGCTAG | 4.44 z-score |
| GACGATATCGGGTTTCGAGAGGTGCTA | 0.828 z-score |
| GACGTTTTCCTTTCCCTGACGTGCTAG | 6.64 z-score |
| TCAGATTTCGGGTTTCGATTAGTGCTA | 3.45 z-score |
| TCCATTTTCTAAATGCCCTAGTGCTAG | 2.91 z-score |
| GACGGTATCAGTTTCGGGACGTGCTAG | 6.37 z-score |
| GACGATATCAGCCTGGAGACGTGCTAG | -0.0602 z-score |

Block 4 — technique: DHFR PCA, deep sequencing; matrix: yeast; together with: (+)-ABA 17 µM; relative to: wild-type fitted maximum; reading: higher = stronger binding
Target: ABI1, truncated, D143A, DHFR fusion (Arabidopsis thaliana)
Notes: methotrexate growth selection, single substitutions
Starting sequence: PYL1, truncated, DHFR fusion (Arabidopsis thaliana); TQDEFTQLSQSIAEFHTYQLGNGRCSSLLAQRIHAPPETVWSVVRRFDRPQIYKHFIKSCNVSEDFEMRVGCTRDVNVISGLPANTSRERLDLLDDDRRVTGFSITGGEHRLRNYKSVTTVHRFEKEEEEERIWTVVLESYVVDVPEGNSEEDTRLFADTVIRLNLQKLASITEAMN
| Substitution | relative binding score |
| --- | --- |
| V70D | 23.5% |
| D95V | 12.2% |
| S9Q | 83.9% |
| C25D | -6.75% |
| D95M | 45.1% |
| F56Q | 15.2% |
| S27K | 12.5% |
| S11Y | 81.4% |
| G148C | 36.8% |
| P83Y | -10.4% |
| V70F | 2.73% |
| H34V | 66.6% |
| E139I | 70.6% |
| D75R | 75.9% |
| S59G | 68.4% |
| I162S | 0.75% |
| D96E | 92.3% |

Block 5 — target: CCNA1, cyclin fold, Cln2 fusion (human); technique: yeast growth competition, sequencing; matrix: yeast; notes: strong parent motif; relative to: not given; reading: higher = stronger binding
Starting sequence: CCP110 docking peptide (human); EKVKRRLDLDIDG
| Substitution | normalised enrichment score |
| --- | --- |
| L9A | 0.142 |
| E1A | 0.751 |
| R5A L7A | 0.244 |
| D10A | 0.76 |
| R5K L9F | 1.61 |
| R5A | 0.369 |
| K2A | 0.477 |
| V3A | 0.0973 |
| L9F | 1.83 |
| D12A | 0.48 |

Block 6 — technique: protein-binding microarray; form: double-stranded DNA, one strand shown; matrix: in vitro; concentration: 0.8 µM; notes: whole 60-bp probe, no competitor; reading: higher = stronger binding; constant ends, left off below: … GTCTTGATTCGCTTGACGCTGCTG
Target: Centromere-binding protein 1, full length, N-terminal tag (CBF1, Saccharomyces cerevisiae, UniProt P17106, residues 1-351)
UniProt P17106, sequence (whole entry, looked up): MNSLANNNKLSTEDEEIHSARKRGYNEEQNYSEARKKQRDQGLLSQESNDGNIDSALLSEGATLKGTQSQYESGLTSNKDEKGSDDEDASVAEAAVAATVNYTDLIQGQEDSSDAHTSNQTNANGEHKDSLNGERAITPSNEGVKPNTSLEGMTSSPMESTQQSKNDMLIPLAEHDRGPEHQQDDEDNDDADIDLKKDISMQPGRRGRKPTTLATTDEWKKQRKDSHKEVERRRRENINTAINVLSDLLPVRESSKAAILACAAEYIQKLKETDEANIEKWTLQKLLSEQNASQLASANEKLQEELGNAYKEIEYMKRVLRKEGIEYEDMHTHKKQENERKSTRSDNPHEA
| Sequence | fluorescence intensity [a.u.] |
| --- | --- |
| CTAACCCTAAACCATCAGCGGCTATTATTAACATTC | 495 |
| CTATGTCTTTTCTACCACATGCACAATGAAAGCTTC | 872 |
| CTATGGTTAAGTCATCAGGCGGCGCTCTTGAAGTTC | 524 |
| GAAATACCTTCGTAAAACGTGACGACTTTCATATAG | 1810 |
| GAATATTTACGCCATCACGCTCACCTTCTTCCCTAG | 626 |
| GAACTCTGTACTGGCTACGTGCCATGCTGGCCTTAG | 2610 |
| GAAAGTGGTAAGACCGTCATGATCGCCGCTCACTAG | 478 |
| GAAAAATAGTTGAAAGGTGTGACATAAGAAGGTTAG | 568 |
| GAAAGGCAAGGCTGCGGCATCATGTCTACTTGTTAG | 497 |
| CTAAAAGAAGAAATAGATTGCTTTGCGTGAAATTTC | 523 |
| CTACTCCGGGTGAACCCCACGACAACTTACCTGTTC | 477 |
| CTATGGAGGTCTACACACGTTAATAGTCTCAAATTC | 532 |
| TGTACGAAGCTATATCCACGCACTATAGTAGTTAGG | 520 |
| CTATTAAAAAAAAAAAAGCACGTGCTCAAAAATTTC | 25400 |
| CTATTTTCTTATATACAGGAGATGGGTGGCCACTTC | 534 |
| GAATTCTACTATCACCTGTTCATGATATTATGGTAG | 1590 |
| GAAACGCTATACATTTACGTGCTGAGCTCCTAGTAG | 523 |
| CTAATAGTTAATGATCACGACGGCAATGACAAATTC | 920 |

Further values, each from its own experiment
| Molecule | target | assay | test system | setting | how to read | quantity | result |
| --- | --- | --- | --- | --- | --- | --- | --- |
| PhoQ, residues 284 288 289 292 302 303 TLSLKA | PhoP, residues 12 14 15 18 19 LHSVW (Escherichia coli, UniProt P23836) | Sort-seq, measured: YFP reporter | E. coli | PhoQ-PhoP variant library, together with: 10 µM Mg2+ | relative to: high Mg2+ state, higher = stronger signaling | fold induction | 1.54 |

Repeated from above (block 5):
| Substitution | normalised enrichment score |
| --- | --- |
| E1A | 0.751 |
| R5A L7A | 0.244 |
| D10A | 0.76 |
| R5K L9F | 1.61 |
| R5A | 0.369 |
| K2A | 0.477 |
| V3A | 0.0973 |
| L9F | 1.83 |
